Results gathered from unrelated publications.
Compare with care: the assays were run in different laboratories. ± gives the spread as reported.

Structure (SMILES) | cell line | assay | setting | how to read | endpoint | result
COc1cc(CNC(=O)C[C@H](C)CCC=C(C)C)ccc1OCc1cn(-c2cccc(C(F)(F)F)c2)nn1 | RPMI-8226 leukaemia cells | SRB | 10 µM, 48 h |  | growth percent | 89.8%
COc1ccc(OC)c(Nc2nc(NCCCO)c3ccccc3n2)c1 | BCR-ABL1+ BRCA1-deficient 32Dcl3 | measured: GFP-RAD52 foci | 2.5 µM, with: cisplatin | baseline: cisplatin alone | decrease in foci-positive cells | 2 to 2.5 fold
COc1ccc(NC(=O)CCc2nc3cc(Cl)ccc3[nH]c2=O)cc1 | MCF7 |  | concentration not given |  | active p53 level | 346 ± 7.44 pg/mL
CN1CCC(N[C@@H]2CCc3[nH]c4c(C(N)=O)ccc(-c5ccccc5Cl)c4c3C2)CC1 | HCT-116 p53 knock-out | annexin V-FITC/PI | 50 nM |  | increase in apoptotic cells | 14.1%
CCCCCCCCCCCCCCCC(=O)N[C@@H](CCCCNC(=O)[C@H](CCCCNC(=O)CCC(=O)NCCN(C)CCNc1ccnc2cc(C(F)(F)F)ccc12)NC(=O)CCC(=O)NCCN(C)CCNc1ccnc2cc(C(F)(F)F)ccc12)C(=O)N[C@@H](CS)C(=O)NCC(=O)NCC(=O)NCC(=O)N[C@@H](C)C(=O)N[C@@H](CCCNC(=N)N)C(=O)N[C@@H](CCCCN)C(=O)N[C@@H](CCCCN)C(=O)N[C@@H](C)C(=O)N[C@@H](C)C(=O)N[C@@H](CCCCN)C(=O)N[C@@H](C)C(=O)N[C@@H](C)C(=O)N[C@@H](CCCNC(=N)N)C(=O)N[C@@H](CCCCN)C(=O)N[C@@H](CCCCN)C(=O)N[C@@H](C)C(=O)N[C@@H](C)C(=O)N[C@@H](CCCCN)C(=O)N[C@@H](C)C(=O)N[C@@H](C)C(=O)N[C@@H](CCCNC(=N)N)C(=O)N[C@@H](CCCCN)C(=O)N[C@@H](CCCCN)C(=O)N[C@@H](C)C(=O)N[C@@H](C)C(=O)N[C@@H](CCCCN)C(=O)N[C@@H](C)C(=O)N[C@@H](C)C(=O)N[C@@H](CCCNC(=N)N)C(=O)N[C@@H](CCCCN)C(=O)N[C@@H](CCCCN)C(=O)N[C@@H](C)C(=O)N[C@@H](C)C(=O)N[C@@H](CCCCN)C(=O)N[C@@H](C)C(N)=O | HCE-S | fluorescence microscopy | 17.5 µM, 24 h, 140:1 ratio, with: 125 nM siGLO siRNA |  | transfection efficiency | > 90%
Cc1cc2[nH]c(C(=O)Nc3ccccc3C)c(CN3CCOCC3)c2s1 | human Fibroblast | cell growth or viability, SRB | 100 µM |  | inhibition | < 50%
CO[C@H]1N(OC)c2ccccc2[C@@]12CN=C(Nc1cc(C(F)(F)F)cc(C(F)(F)F)c1)S2 (relative stereo) | HCT-116 | annexin V/PI flow cytometry | 40 µM, 72 h |  | viable cells | 36 ± 14.1%
COc1cc(CNC(=O)C[C@H](C)CCC=C(C)C)ccc1OCc1cn(-c2ccccc2Cl)nn1 | SF-539 CNS cancer cells | SRB | 10 µM, 48 h |  | growth percent | 75.2%
CC(C)Cc1ccc(C(C)C(=O)[O][Pt]([NH2])([NH2])([Cl])([Cl])[O]C(=O)CCCc2ccccc2)cc1 (stereo not shown) | C13 and 2008 | cytotoxicity, MTT |  | baseline: IC50 C13 over IC50 2008 | resistance factor | 1.9
CCC(=C(c1ccc(Cl)cc1)c1ccc(OCCCN(C)C)cc1)c1ccc(OC)cc1 | BT-549 | cell growth or viability, SRB |  |  | GI50 | 1.13 µM
O=Cc1c(O)ccc2ccccc12 | HUVEC | RNA sequencing, measured: DEPP1 | 75 µM, 24 h | baseline: DMSO | log2 fold change | -6.24
Cc1cc(N)c2ccccc2[n+]1CCCCCCCCCCCCCC[n+]1c(C)cc(N)c2ccccc21 | NB12 neuroblastoma tumour-initiating cells | alamarBlue | concentration not given, primary screen |  | viability decrease | 74%
CC/C=C\C/C=C\C/C=C\C/C=C\C/C=C\C/C=C\CCC(=O)Nc1ccn(C2OC(CO)C(O)C2(F)F)c(=O)n1 (stereo not shown) | IGROV-1 | NCI60 screen |  |  | TGI | 22.5 µM
COc1cc(CNC(=O)C[C@H](C)CCC=C(C)C)ccc1OCc1cn(-c2cccc(Cl)c2)nn1 | RPMI-8226 leukaemia cells | SRB | 10 µM, 48 h |  | growth percent | 56.3%
N#Cc1cccc(-c2ccc(=O)n(Cc3cccc(-c4ncc(OCC5CCN(CC(=O)NCCOCCNc6ccc7c(c6)C(=O)N(C6CCC(=O)NC6=O)C7=O)CC5)cn4)c3)n2)c1 (stereo not shown) | EBC-1 | annexin V flow cytometry | 10 nM, 48 h |  | apoptotic cells | 43.6%
CC(=O)OC[C@H]1O[C@@H](Sc2sc(C(=O)c3ccc(Br)cc3)c(N)c2-c2nc3ccccc3s2)[C@H](OC(C)=O)[C@@H](OC(C)=O)[C@H]1OC(C)=O | SK-MEL-2 | SRB | 10 µM, 48 h | baseline: untreated | growth | 112%
COc1cc(C(=O)c2[nH]c(N)nc2-c2cccs2)cc(OC)c1OC | HeLa cells | western blot | 240 nM, 24 h | baseline: polymeric over soluble tubulin | polymeric to soluble tubulin ratio | 1.1 ± 0.1
O=C1NCC(Cc2ccccc2)N(CC2CCCN2CC(CC2CCCCC2)N2CC(Cc3ccc(O)cc3)N(CCc3ccccc3)C(=O)C2=O)C1=O (stereo not shown) | WM 266-4 | RT-PCR | 50 µM, 2 h |  | spliced XBP1 share | 60 ± 5%
[Ru+2].c1ccc(-c2ccc3c(n2)c2ncccc2c2nc4cc5ccccc5cc4nc32)nc1.c1ccc(-c2ccc3c(n2)c2ncccc2c2nc4cc5ccccc5cc4nc32)nc1 | M2 murine macrophages |  |  | baseline: dark EC50 over light EC50 | phototherapeutic index | > 36
CCc1nnc(NS(=O)(=O)c2ccc(NC(=S)NC(=O)/C=C/c3ccc(F)cc3)cc2)s1 | SK-N-AS EP2 knock-out |  | 10 µM |  | neurosphere size | no effect

Structure (SMILES) | cell line | assay | setting | how to read | endpoint | result
N.N.[Cl][Pt+].c1ccc2c(c1)cnc1ccccc12 | HEL 299 and A549 | resazurin |  | baseline: IC50 HEL 299 over A549 | selectivity index | 13.8
COc1cc(CNC(=O)C[C@H](C)CCC=C(C)C)ccc1OCc1cn(-c2ccc(Br)cc2)nn1 | U-251 CNS cancer cells | SRB | 10 µM, 48 h |  | growth percent | 63.4%
CC(=O)Oc1ccccc1C(=O)[O][Pt]([NH2])([NH2])([Cl])([Cl])[O]C(=O)C(Cl)Cl | six human cancer cell lines | MTT |  | baseline: cisplatin over compound | mean IC50 ratio | ~18
O=C1Nc2ccc(F)cc2C1=Cc1c(Cl)[nH]c2c1ccc1ccccc12 | breast cancer subpanel of NCI-60 |  | 48 h |  | TGI | 6.76 µM
COc1ccc2cc3[n+](cc2c1OCc1cn(Cc2ccc(C(C)(C)C)cc2)nn1)CCc1cc2c(cc1-3)OCO2.[Cl-] | SMMC-7721 | cell growth, MTT | 7.8 µM |  | inhibition | > 50%
COc1ccc([C@@H]2CC(=O)c3c(O)cc(O[C@@H]4O[C@H](CO[C@@H]5O[C@@H](C)[C@H](O)[C@@H](O)[C@H]5O)[C@@H](O)[C@H](O)[C@H]4O)cc3O2)cc1O | A549 | cell growth or viability, MTS | 50 µg/mL, 24 h |  | viability | 86.4%
CC(=O)OC[C@H]1O[C@@H](Sc2sc(C(=O)c3ccc(C)cc3)c(N)c2-c2nc3ccccc3s2)[C@H](OC(C)=O)[C@@H](OC(C)=O)[C@H]1OC(C)=O | BT-549 | SRB | 10 µM, 48 h | baseline: untreated | growth | 82.7%
C=C(C)[C@@H]1CC[C@]2(C(=O)OCO/N=[N+](\[O-])N3CCCC3)CC[C@]3(C)[C@H](CC[C@@H]4[C@@]5(C)CC[C@H](OC(C)=O)C(C)(C)[C@@H]5CC[C@]43C)[C@@H]12 | B16-F10 | Annexin V/PI flow cytometry | 0.50 µM, 36 h |  | late apoptotic cells | 4.47%
COc1cc(CNC(=O)C[C@H](C)CCC=C(C)C)ccc1OCc1cn(-c2cccc([N+](=O)[O-])c2)nn1 | RPMI-8226 leukaemia cells | SRB | 10 µM, 48 h |  | growth percent | 73.3%
CCC12CCc3c(c4ccccc4n3C)CCN(CC3OC31)C2 (stereo not shown) | BV-2 | western blot | 25 µM, with: LPS | baseline: LPS alone | HO-1 protein level | 8.69 fold
COc1cc(CNC(=O)C[C@H](C)CCC=C(C)C)ccc1OCc1cn(-c2ccc(Cl)cc2Cl)nn1 | RPMI-8226 leukaemia cells | SRB | 10 µM, 48 h |  | growth percent | 90.7%
C[N+]1(CC(=O)OC2CCCCCCCCCCC2)CCCCC1 | LNCaP expressing AR-V7 | cell viability, CellTiter Blue | 96 h |  | ED70 | 8.9 µM
CC(=O)N[C@H](C(=O)N[C@H](C(=O)N[C@@H](CCCNC(=N)N)C(=O)N1Cc2ccccc2C[C@H]1C(=O)N[C@@H](Cc1ccccc1)C(N)=O)C1CCCCC1)C(C)C | MBP-specific BC-3 T cells | Bio-Plex multiplex, measured: GM-CSF | 200 µg/mL, 24 h, with: MBP87-99 antigen |  | cytokine level | < 2.8 pg/mL
COc1ccc2c(c1)/C(=N\Nc1nnc3n1N=C(c1ccccc1)CS3)C(=O)N2 | SF-539 | cell growth or viability, SRB | 10 µM |  | inhibition | 15%
COC(=O)c1ccccc1-c1c2ccc(=O)cc-2oc2cc(OCCCCC[P+](c3cc(C)cc(C)c3)(c3cc(C)cc(C)c3)c3cc(C)cc(C)c3)ccc12 | HeLa cells | confocal microscopy | with: MitoTracker Deep Red |  | Pearson coefficient | 0.877 ± 0.018
O=C1C(Cl)=C(NCCN2CCOCC2)C(=O)c2ncccc21 | HEK-293T | H4K20me1 level, inhibitor, western blot | 24 h |  | effective concentration | < 5 µM
CCN(CC)CC(=O)Nc1cccc(-n2cc(-c3ccc4ccc(-c5cn(-c6cccc(NC(=O)CN(CC)CC)c6)nn5)cc4c3)nn2)c1 | RCC4 |  | 5 and 10 × IC50, 4 h, normoxia and hypoxia |  | colony formation | decreased
CN1CCCNC(=O)c2cccc(c2)C(=O)NCCCN(C)CCCNc2cccc3c2C(=O)c2cccc(c2C3=O)NCCC1 | SAS | RNA-Seq | 1 and 5 µM, 6 and 24 h, all treatment conditions combined |  | differentially expressed genes share | 3.5%
COc1cc(CNC(=O)C[C@H](C)CCC=C(C)C)ccc1OCc1cn(-c2ccccc2F)nn1 | SF-539 CNS cancer cells | SRB | 10 µM, 48 h |  | growth percent | 44.6%
O=C1C(=NN=c2[nH]ccs2)c2cc(Cl)ccc2N1CCn1ncc2c(=O)[nH]cnc21 | BALB/3T3 and MDA-MB-231 | cell growth |  | baseline: IC50 BALB/3T3 over MDA-MB-231 | selectivity ratio | 1.25

Some of these lines once more:
Structure (SMILES) | cell line | assay | setting | how to read | endpoint | result
COc1cc(CNC(=O)C[C@H](C)CCC=C(C)C)ccc1OCc1cn(-c2ccc(Cl)cc2Cl)nn1 | RPMI-8226 leukaemia cells | SRB | 10 µM, 48 h |  | growth percent | 90.7%
[Ru+2].c1ccc(-c2ccc3c(n2)c2ncccc2c2nc4cc5ccccc5cc4nc32)nc1.c1ccc(-c2ccc3c(n2)c2ncccc2c2nc4cc5ccccc5cc4nc32)nc1 | M2 murine macrophages |  |  | baseline: dark EC50 over light EC50 | phototherapeutic index | > 36
O=C1Nc2ccc(F)cc2C1=Cc1c(Cl)[nH]c2c1ccc1ccccc12 | breast cancer subpanel of NCI-60 |  | 48 h |  | TGI | 6.76 µM
C=C(C)[C@@H]1CC[C@]2(C(=O)OCO/N=[N+](\[O-])N3CCCC3)CC[C@]3(C)[C@H](CC[C@@H]4[C@@]5(C)CC[C@H](OC(C)=O)C(C)(C)[C@@H]5CC[C@]43C)[C@@H]12 | B16-F10 | Annexin V/PI flow cytometry | 0.50 µM, 36 h |  | late apoptotic cells | 4.47%
CCC12CCc3c(c4ccccc4n3C)CCN(CC3OC31)C2 (stereo not shown) | BV-2 | western blot | 25 µM, with: LPS | baseline: LPS alone | HO-1 protein level | 8.69 fold
